Published values pooled from the literature.
Lines come from different studies, so protocols differ. ± marks the error that the study gave.
B1: enzyme (Bacteroides thetaiotaomicron, UniProt Q8A947); chain MIKNIVFDFGGVIVDIDRDKAVQAFIKLGLADADTRLDKYHQTGIFQELEEGKLSADEFRKQLGDLCGRELTMEETKQAWLGFFNEVDLRKLDYILGLRKSYHVYLLSNTNPFVMSWACSPEFSSEGKPLNDYCDKLYLSYQLGHTKPAPEIFDFMIKDSHVIPSETLFVDDGSSNIHIGKELGFETFQPENGADWRQELTVILNS
B2: ZDHHC20 (Homo sapiens, UniProt Q5W0Z9); chain MAPWTLWRCCQRVVGWVPVLFITFVVVWSYYAYVVELCVFTIFGNEENGKTVVYLVAFHLFFVMFVWSYWMTIFTSPASPSKEFYLSNSEKERYEKEFSQERQQEILRRAARALPIYTTSASKTIRYCEKCQLIKPDRAHHCSACDSCILKMDHHCPWVNNCVGFSNYKFFLLFLLYSLLYCLFVAATVLEYFIKFWTNELTDTRAKFHVLFLFFVSAMFFISVLSLFSYHCWLVGKNRTTIESFRAPTFSYGPDGNGFSLGCSKNWRQVFGDEKKYWLLPIFSSLGDGCSFPTRLVGMDPEQASVTNQNEYARSSGSNQPFPIKPLSESKNRLLDSESQWLENGAEEGIVKSGTNNHVTVAIEN
B3: DMGDH H109R (Homo sapiens, UniProt Q9UI17); chain ETVIIGGGCVGVSLAYHLAKAGMKDVVLLEKSELTAGSTWHAAGLTTYFHPGINLKKIRYDSIKLYEKLEEETGQVVGFHQPGSIRLATTPVRVDEFKYQMTRTGWHATEQYLIEPEKIQEMFPLLNMNKVLAGLYNPGDGHIDPYSLTMALAAGARKCGALLKYPAPVTSLKARSDGTWDVETPQGSMRANRIVNAAGFWAREVGKMIGLEHPLIPVQHQYVVTSTISEVKALKRELPVLRDLEGSYYLRQERDGLLFGPYESQEKMKVQDSWVTNGVPPGFGKELFESDLDRIMEHIKAAMEMVPVLKKADIINVVNGPITYSPDILPMVGPHQGVRNYWVAIGFGYGIIHAGGVGKYLSDWILHGEPPFDLIELDPNRYGKWTTTQYTEAKARESYGFNNIVGYPKEERFAGRPTQRVSGLYQRLESKCSMGFHAGWEQPHWFYKPGQDTQYRPSFRRTNWFEPVGSEYKQVMQRVAVTDLSPFGKFNIKGQDSIRLLDHLFANVIPKVGFTNISHMLTPKGRVYAELTVSHQSPGEFLLITGSGSELHDLRWIEEEAVKGGYDVEIKNITDELGVLGVAGPQARKVLQKLTSEDLSDDVFKFLQTKSLKVSNIPVTAIRISYTGELGWELYHRREDSVALYDAIMNAGQEEGIDNFGTYAMNALRLEKAFRAWGLEMNCDTNPLEAGLEYFVKLNKPADFIGKQALKQIKAKGLKRRLVCLTLATDDVDPEGNESIWYNGKVVGNTTSGSYSYSIQKSLAFAYVPVQLSEVGQQVEVELLGKNYPAVIIQEPLVLTEPTRNRLQKKGGKDKT
B4: GLTSCR2/Tat fusion 241-478; chain APAGASYNPSFEDHQTLLSAAHEVELQRQKEAEKLERQLALPATEQAATQESTFQELCEGLLEESDGEGEPGQGEGPEAGDAEVCPTPARLATTEKKTEQQRRREKAVHRLRVQQAALRAARLRHQELFRLRGIKAQVALRLAELARRQRRRQARREAEADKPRRLGRLKYQAPDIDVQLSSELTDSLRTLKPEGNILRDRFKSFQRRNMIEPRERAKFKRKYKVKLVEKRAFREIQLGGSRYGRKKRRQRRR
B5: susA (Bacteroides thetaiotaomicron, UniProt Q8A1G0); chain TSTIKKVAPTFWWAGMKNPELQILLYGDRISSADVSLSADNITLQEVVKQENPNYLVLYLDLSKAAPQNFDIILKQGKKQTKIPYELKQRRPNASAVEGFDSSDVLYLIMPDRFANGNPSNDIIPGMLEGNVDRNEPFARHGGDLKGIENHLDYIADLGVTSIWLNPIQENDMKEGSYHGYAITDYYQVDRRFGSNEEFRKLTQEANAKGLKVVMDMIFNHCGSDNYLFKDMPSKDWFNFEGNYVQTSFKTATQMDPYASDYEKKIAIDGWFTLTMPDFNQRNRHVATYLIQSSIWWIEYAGINGIRQDTHPYADFDMMARWCKAVNEEYPKFNIVGETWLGNNVLISYWQKDSRLAYPKNSNLPTVMDFPLMEEMNKAFDEETTEWNGGLFRLYEYLSQDIVYSHPMSLLTFLDNHDTSRFYRSEADTKNLDRYKQALTFLLTTRGIPQIYYGTEILMAADKANGDGLLRCDFPGGWPNDTKNCFDAANRTPQQNEAFSFMQKLLQWRKGNEVIAKGQLKHFAPNKGVYVYERKYGDKSVVVFLNGNDREQTIDLVPYQEILPASSAFDLLTEKKVELRNELTLPSREIYLLSF
B6: HNRNPA1 186-320 low-complexity domain; chain GSMASASSSQRGRSGSGNFGGGRGGGFGGNDNFGRGGNFSGRGGFGGSRGGGGYGGSGDGYNGFGNDGSNFGGGGSYNDFGNYNNQSSNFGPMKGGNFGGRSSGPYGGGGQYFAKPRNQGGYGGSSSSSSYGSGRRF
B7: enzyme (Listeria monocytogenes, UniProt Q8Y7B6); chain MSFDVLTINPGSTSTKLAVYQGDKVLFEETVRHTMQELADFNNVQEQFDFRWQVLRRVMDAHGYDVKKLQAVVGRGGLLRPVAGGTYMVTEKMIDDLKENKYGEHASNLGAMLAKKLADELTIPSFIVDPVVVDEMQEIARISGNAFVTRKSIFHALNHKAAGRKIAKELGKDYEKMNFVIAHLGGGISVAAHRQGKAVDVNNALDGDGPFSPERSGSLPMNDFLEACFSGKWTKRELHELIVGRGGMISYLGTNSMLEVEAKVQAGEEKAIEAFDAMAYQVSKEIGACSVVLQGKVDAIILTGGLARSELFTSKIIEQTNWITSVIIEPGEDELEALNSGVQRVLAGLEKEKEY

The Km of `B1 (enzyme)` is reported as 100 µM (Nc1c(NC[C@H](O)[C@H](O)[C@H](O)COP(=O)(O)O)[nH]c(=O)[nH]c1=O; steady-state kinetics; pH 7.5, 25 °C).
`susB (Bacteroides thetaiotaomicron, UniProt G8JZS4)` has a kcat/Km of 269000 M⁻¹ s⁻¹ (O=[N+]([O-])c1ccc(O[C@H]2O[C@H](CO)[C@@H](O)[C@H](O)[C@H]2O)cc1; steady-state kinetics; pH 6.6).
`B2 (ZDHHC20)` gave a Km of 2.53 µM (CCCCCCCCCCCCCCCC(=O)SCCNC(=O)CCNC(=O)[C@H](O)C(C)(C)COP(=O)(O)OP(=O)(O)OC[C@H]1O[C@@H](n2cnc3c(N)ncnc32)[C@H](O)[C@@H]1OP(=O)(O)O; steady-state kinetics; pH 7.4, 30 °C).
`enzyme (Bacteroides thetaiotaomicron, UniProt Q89YZ9)` gave a kcat of 48.6 ± 2.5 s⁻¹ (O=[N+]([O-])c1ccc(O[C@H]2O[C@H](CO)[C@@H](O)[C@H](O)[C@H]2O)cc1; steady-state kinetics; pH 6.6).
`B3 (DMGDH H109R)` gave a kcat of 0.01 ± 0.00917 s⁻¹ (CN(C)CC(=O)O; steady-state kinetics; pH 7.5, 25 °C, single Km, mutant, no THF, added: ferricenium hexafluorophosphate 200 µmol/L).
`HY6-F9 chimeric IgG1 T307Q/Q311V/A378V (Homo sapiens)` gave a Kd of 1.97 ± 0.04 nM (FCGRT/B2M FcRn (Homo sapiens); BLI).
For `B4 (GLTSCR2/Tat fusion 241-478)`, “subunits per oligomer” read 2 (itself; SEC; pH 8.0).
With `B5 (susA)` the kcat/Km was 120000 M⁻¹ s⁻¹ (O=[N+]([O-])c1ccc(O[C@H]2O[C@H](CO)[C@@H](O[C@H]3O[C@H](CO)[C@@H](O[C@H]4O[C@H](CO)[C@@H](O[C@H]5O[C@H](CO)[C@@H](O[C@H]6O[C@H](CO)[C@@H](O[C@H]7O[C@H](CO)[C@@H](O)[C@H](O)[C@H]7O)[C@H](O)[C@H]6O)[C@H](O)[C@H]5O)[C@H](O)[C@H]4O)[C@H](O)[C@H]3O)[C@H](O)[C@H]2O)cc1; steady-state kinetics; pH 7).
`protein (Bacteroides thetaiotaomicron, UniProt Q8A711)` gave a kcat of 0.0167 ± 0.00167 s⁻¹ (C=C(OP(=O)(O)O)C(=O)O; steady-state kinetics; pH 7.5, 25 °C, added: mannose 6-phosphate 3 mM).
`B6` — result for binding: “binds” (itself; centrifugation, DIC microscopy).
`pegcetacoplan`: “number of TEAEs” 7 (measured: injury, poisoning, procedural complications; patients with PNH; dose not given, phase Ib trial).
For `GluA1/TARP γ-8 fusion`, the kainate efficacy was 48.2% (GluA2/TARP γ-8 (x); patch clamp; HEK293T; added: philanthotoxin; relative to: glutamate current, higher = greater efficacy).
`CCL5 mature (UniProt P13501)` has an EC50 of 155 nM (CCR5 (Homo sapiens, UniProt P51681); calcium mobilization, agonist; HOS-CCR5; Gqi5 transfected).
For `HY6-F9 chimeric IgG1 M252Y/S254T/T256E (Homo sapiens)`, the Kd was 2.72 ± 0.06 nM (FCGRT/B2M FcRn (Homo sapiens); BLI).
The kcat/Km of `B7 (enzyme)` is reported as 6.67 M⁻¹ s⁻¹ (CCC(CC)C(=O)O; steady-state kinetics; pH 7.5, 37 °C).

For quick reference, copied from above:
For `GluA1/TARP γ-8 fusion`, the kainate efficacy was 48.2% (GluA2/TARP γ-8 (x); patch clamp; HEK293T; added: philanthotoxin; relative to: glutamate current, higher = greater efficacy).
`CCL5 mature (UniProt P13501)` has an EC50 of 155 nM (CCR5 (Homo sapiens, UniProt P51681); calcium mobilization, agonist; HOS-CCR5; Gqi5 transfected).
